Published values from different studies.
Each line is one published result; not all experiments were run side by side. ± gives the spread as reported.
Technique: steady-state kinetics
B1: CstB (Staphylococcus aureus, UniProt G5ELA4); chain MFFKQFYDNHLSQASYLVGCQRTGEAIIIDPVRDLSKYIEVADSEGLTITQATETHIHADFASGIRDVAKRLNANIYVSGEGEDALGYKNMPSKTQFVKHGDIIQVGNVKLEVLHTPGHTPESISFLLTDLGGGSSVPMGLFSGDFIFVGDIGRPDLLEKSVQIKGSTEISAKQMYESVQNIKNLPDYVQIWPGHGAGSPCGKALGAIPISTIGYEKINNWAFNEIDETKFIESLTSNQPAPPHHFAQMKQVNQFGMNLYQSYDVYPSLDNKRVAFDLRSKEAFHGGHTKGTINIPYNKNFINQIGWYLDFEKDIDLIGDKSTVEKAKHTLQLIGFDKVAGYRLPKSGISTQSVHSADMTGKEEHVLDVRNDEEWNNGHLDQAVNIPHGKLLNENIPFNKEDKIYVHCQSGVRSSIAVGILESKGFENVVNIREGYQDFPESLK
B2: sacB S173T (Priestia megaterium, UniProt D5DC07); chain KGNDSKDFNNSYGISHITRDNMVKIPQQQNSDQFKVPAFDESTIKNIASAKGKNASGNTIDLDVWDSWPLQNADGTVATYHGYQIVFALAGDPKDSNDTSVYLFYKKAGDKSIDSWKNAGRVFKDSDKFVPNDPHLKNQTQEWTGSGTLTKDGKVRLFYTDYSGKQYGKQTLTTAQVNMSQPNDNTLKVDGVEDYKSIFDGDGKIYQTVQQFIDEGGYDTGDNHTLRDPHYIEDNGHKYLVFEANTGTEDGYQGEDSLYNRAYYGGNNPFFQSEKKKLLEGSNKEKASLANGALGIIELNDDYTLKKVMKPLITSNTVTDEIERANIFKKDGKWYLFTDSRGSKMTIDGIGQDDVYMLGYVSNTLTGKYKPLNDTGLVLHMDLDPNDKTFTYSHFAVPQTKGDNVVITSYMTNRGFYEDNHSTFAPSFLVNIDGSKTSVVKDRVLEQGQLTVDED
B3: rebH (Lentzea aerocolonigenes, UniProt Q8KHZ8); chain MSGKIDKILIVGGGTAGWMAASYLGKALQGTADITLLQAPDIPTLGVGEATIPNLQTAFFDFLGIPEDEWMRECNASYKVAIKFINWRTAGEGTSEARELDGGPDHFYHSFGLLKYHEQIPLSHYWFDRSYRGKTVEPFDYACYKEPVILDANRSPRRLDGSKVTNYAWHFDAHLVADFLRRFATEKLGVRHVEDRVEHVQRDANGNIESVRTATGRVFDADLFVDCSGFRGLLINKAMEEPFLDMSDHLLNDSAVATQVPHDDDANGVEPFTSAIAMKSGWTWKIPMLGRFGTGYVYSSRFATEDEAVREFCEMWHLDPETQPLNRIRFRVGRNRRAWVGNCVSIGTSSCFVEPLESTGIYFVYAALYQLVKHFPDKSLNPVLTARFNREIETMFDDTRDFIQAHFYFSPRTDTPFWRANKELRLADGMQEKIDMYRAGMAINAPASDDAQLYYGNFEEEFRNFWNNSNYYCVLAGLGLVPDAPSPRLAHMPQATESVDEVFGAVKDRQRNLLETLPSLHEFLRQQHGR
B4: onr (Enterobacter cloacae, UniProt P71278); chain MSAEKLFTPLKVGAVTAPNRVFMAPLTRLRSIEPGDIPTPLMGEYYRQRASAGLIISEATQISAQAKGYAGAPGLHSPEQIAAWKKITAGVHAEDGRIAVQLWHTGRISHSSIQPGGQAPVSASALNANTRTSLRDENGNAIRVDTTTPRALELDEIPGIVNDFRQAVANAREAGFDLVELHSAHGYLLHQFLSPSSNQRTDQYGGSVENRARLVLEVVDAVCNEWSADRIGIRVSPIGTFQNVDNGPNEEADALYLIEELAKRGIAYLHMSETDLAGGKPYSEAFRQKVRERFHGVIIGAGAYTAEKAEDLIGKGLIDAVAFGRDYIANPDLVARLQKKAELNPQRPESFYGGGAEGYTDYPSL
B5: TcC (Trypanosoma cruzi, UniProt Q4DGA3); chain MPREYEFAEKILFTEEEIRTRIMEVAKRIADDYKGKGLRPYVNPLVLISVLKGSFMFTADLCRALSDFNVPVRMEFICVSSYGEGVTSSGQVRMLLDTRHSIEGHHVLIVEDIVDTALTLNYLYHMYFTRRPASLKTVVLLDKREGRRVPFSADYVVANIPNAFVIGYGLDYDDTYRELRDIVVLRPEVYAEREAARQKKQRAIGSADTDRDAKREFHSKY
B6: putA E639A (Bradyrhizobium diazoefficiens, UniProt Q89E26); chain MPNIPPPFTAPYAPDDAEIAARLLPASHLSPPQEARIHRTATRLIEAIRKRDDRLGGVEDMLREFALSTKEGLALMVLAEALLRVPDARTADQFIEDKLGEGDFIHHETKSTAFLVNASAWALGLSARVIQPGETPDGTIGRLVKRLGAPAVRTATRQAMRLMGNHFVLGETIEQALERGKPRSGQKTRYSFDMLGEGARTAADARRYFDAYASAIETIGKAAGNHALPDRPGISVKLSALHPRFEAISRARVMVELVPQLLDLAQRAKAHDLNFTVDAEEADRLELSLDVIAATLADPSLKGWDGFGLAIQAYQKRASAVIDYVDALARAHDRKLMVRLVKGAYWDTEIKRAQERGLDGYPVFTRKAMTDLNYVACASKLLALRPRIFPQFATHNALTVATVLEMAEGSSGFEFQRLHGMGEALYEQLAKDHADIAYRTYAPVGSHRDLLAYLVRRLLENGANSSFVAQAADYRVPVPALLQRPADAIVRPQAAAHPRIPLPCDLFAPERRNSRGVEFGARTALDQLLTDVKAETGDLKPIADATPDQAHAAVAAARAGFAGWSRTPAGIRAAALEQAAHLLESRSAHFIALLQREGGKTLDDALSELREAADFCRYYAAQGRKLFGSETAMPGPTGASNALTMRGRGVFVAISPWNFPLAIFLGQVTAALMAGNSVVAKPAEQTPRIAREAVALLHEAGIPKSALYLVTGDGRIGAALTAHPDIAGVVFTGSTEVARSINRALAAKDGPIVPLIAETGGINAMIADATALPEQVADDVVTSAFRSAGQRCSALRLLFVQEDVADRMIEMVAGAARELKIGDPSDVATHVGPVIDVEAKQRLDAHIARMKTEARLHFAGPAPEGCFVAPHIFELTEAGQLTEEVFGPILHVVRYRPENLERVLRAIERTGYGLTLGVHSRIDDSIEAIIDRVQVGNIYVNRNMIGAVVGVQPFGGNGLSGTGPKAGGPHYLARFATEQTVTINTAAAGGNAALLAGEE
B7: TylM1 H123N (Streptomyces fradiae, UniProt P95748); chain MAHSSATAGPQADYSGEIAELYDLVHQGKGKDYHREAADLAALVRRHSPKAASLLDVACGTGMHLRHLADSFGTVEGLELSADMLAIARRRNPDAVLHHGDMRDFSLGRRFSAVTCMFSSIGNLAGQAELDAALERFAAHVLPDGVVVVEPWWFPENFTPGYVAAGTVEAGGTTVTRVSHSSREGEATRIEVHYLVAGPDRGITHHEESHRITLFTREQYERAFTAAGLSVEFMPGGPSGRGLFTGLPGAKGETR
B8: BaiA1 (Clostridium scindens, UniProt P07914); chain MKLVQDKITIITGGTRGIGFAAAKLFIENGAKVSIFGETQEEVDTALAQLKELYPEEEVLGFAPDLTSRDAVMAAVGTVAQKYGRLDVMINNAGITMNSVFSRVSEEDFKNIMDINVNGVFNGAWSAYQCMKDAKQGVIINTASVTGIYGSLSGIGYPTSKAGVIGLTHGLGREIIRKNIRVVGVAPGVVDTDMTKGLPPEILEDYLKTLPMKRMLKPEEIANVYLFLASDLASGITATTISVDGAYRP
B9: POLH (Homo sapiens, UniProt Q9Y253); chain MATGQDRVVALVDMDCFFVQVEQRQNPHLRNKPCAVVQYKSWKGGGIIAVSYEARAFGVTRSMWADDAKKLCPDLLLAQVRESRGKANLTKYREASVEVMEIMSRFAVIERASIDEAYVDLTSAVQERLQKLQGQPISADLLPSTYIEGLPQGPTTAEETVQKEGMRKQGLFQWLDSLQIDNLTSPDLQLTVGAVIVEEMRAAIERETGFQCSAGISHNKVLAKLACGLNKPNRQTLVSHGSVPQLFSQMPIRKIRSLGGKLGASVIEILGIEYMGELTQFTESQLQSHFGEKNGSWLYAMCRGIEHDPVKPRQLPKTIGCSKNFPGKTALATREQVQWWLLQLAQELEERLTKDRNDNDRVATQLVVSIRVQGDKRLSSLRRCCALTRYDAHKMSHDAFTVIKNCNTSGIQTEWSPPLTMLFLCATKFSASAPSSSTDITSFLSSDPSSLPKVPVTSSEAKTQGSGPAVTATKKATTSLESFFQKAAERQKVKEASLSSLTAPTQAPMSNSPSKPSLPFQTSQSTGTEPFFKQKSLLLKQKQLNNSSVSSPQQNPWSNCKALPNSLPTEYPGCVPVCEGVSKLEESSKATPAEMDLAHNSQSMHASSASKSVLEVTQKATPNPSLLAAEDQVPCEKCGSLVPVWDMPEHMDYHFALELQKSFLQPHSSNPQVVSAVSHQGKRNPKSPLACTNKRPRPEGMQTLESFFKPLTH
B10: Nudt8 (Mus musculus, UniProt Q9CR24); chain MLPDGLSAEDEQRCRQLLARTTARLRSRPAAAAVLVPLCLVRGVPALLYTLRSSRLVGRHKGEVSFPGGKCDPDDQDVIHTALRETQEELGLEVPKEHVWGVLQPVYDREKATIVPVLANVGPLDLQSLRPNLEEVDEVFEMSLAHLLQTQNQGYTHFCQGGHFSYTLPVFLHGPHRVWGLTAVITELTLKLLAPGFYQPSLAVPELPRG
Sequence of UniProt A4YI89 (whole entry, looked up): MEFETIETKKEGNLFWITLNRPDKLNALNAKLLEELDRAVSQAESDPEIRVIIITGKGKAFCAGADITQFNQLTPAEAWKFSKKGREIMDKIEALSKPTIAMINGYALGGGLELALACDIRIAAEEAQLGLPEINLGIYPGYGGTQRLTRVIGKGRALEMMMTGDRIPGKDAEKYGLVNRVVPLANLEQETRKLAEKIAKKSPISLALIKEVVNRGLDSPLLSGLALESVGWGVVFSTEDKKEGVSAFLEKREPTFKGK

With `protein (Actinidia deliciosa, UniProt C7SHN9)` the kcat/Km was 51000 ± 9600 M⁻¹ s⁻¹ (CC(C)=CCC/C(C)=C/CC/C(C)=C/CO[P@@](=O)(O)OP(=O)(O)O; pH 7.5, together with: FPP 1-100 µM).
The kcat/Km of `B1 (CstB)` is reported as 5000 ± 700 M⁻¹ s⁻¹ (O=S(O)(O)=S; pH 6, 25 °C, together with: KCN 50 mM).
For `B2 (sacB S173T)`, the kcat/Km was 2580 M⁻¹ s⁻¹ (OC[C@H]1O[C@@](CO)(O[C@H]2O[C@H](CO)[C@@H](O)[C@H](O)[C@H]2O)[C@@H](O)[C@@H]1O; pH 6.6).
For `B3 (rebH)`, the kcat/Km was 1.51 M⁻¹ s⁻¹ (c1ccc2c3c([nH]c2c1)CNCC3; together with: glucose dehydrogenase regeneration).
For `B4 (onr)`, the kcat/Km was 9000 M⁻¹ s⁻¹ (CC(C)=CCC/C(C)=C/C=O; pH 7, 25 °C, apparent, anaerobic, together with: NADPH 100 µM).
The kcat/Km of `B5 (TcC)` is reported as 2.1e+06 ± 200000 M⁻¹ s⁻¹ (Nc1nc2nc[nH]c2c(=O)[nH]1; pH 8.3, 37 °C, apparent, together with: PRPP 1 mM, MgCl2 12 mM).
The kcat/Km of `B6 (putA E639A)` is reported as 23 ± 11 M⁻¹ s⁻¹ (O=C(O)[C@@H]1CCCN1; pH 8, 23 °C).
`B7 (TylM1 H123N)` has a kcat/Km of 14 ± 1 M⁻¹ s⁻¹ (Cc1cn([C@H]2C[C@H](O)[C@@H](COP(=O)(O)OP(=O)(O)O[C@H]3O[C@H](C)[C@@H](O)[C@H](N)[C@H]3O)O2)c(=O)[nH]c1=O; 25 °C, together with: SAM).
`B8 (BaiA1)` gave a kcat/Km of 120000 M⁻¹ s⁻¹ (C[C@H](CCC(=O)SCCNC(=O)CCNC(=O)[C@H](O)C(C)(C)COP(=O)(O)OP(=O)(O)OC[C@H]1O[C@@H](n2cnc3c(N)ncnc32)[C@H](O)[C@@H]1OP(=O)(O)O)[C@H]1CC[C@H]2[C@@H]3[C@H](O)C[C@@H]4CC(=O)CC[C@]4(C)[C@H]3CC[C@]12C; pH 8.7, 37 °C, together with: NADH).
The kcat/Km of `B9 (POLH)` is reported as 30 ± 1.67 M⁻¹ s⁻¹ (Cc1cn([C@H]2C[C@H](O)[C@@H](COP(=O)(O)OP(=O)(O)OP(=O)(O)O)O2)c(=O)[nH]c1=O; pH 8, 37 °C, misinsertion opposite dT, together with: Mg2+).
`B10 (Nudt8)` has a kcat/Km of 8170 M⁻¹ s⁻¹ (CCC(=O)SCCNC(=O)CCNC(=O)[C@H](O)C(C)(C)COP(=O)(O)OP(=O)(O)OC[C@H]1O[C@@H](n2cnc3c(N)ncnc32)[C@H](O)[C@@H]1OP(=O)(O)O; pH 8.5, together with: 2 mM Mn2+).
With `3-hydroxypropionyl-CoA dehydratase (Metallosphaera sedula, UniProt A4YI89)` the kcat/Km was 5.12e+06 M⁻¹ s⁻¹ (CC(C)(COP(=O)(O)OP(=O)(O)OC[C@H]1O[C@@H](n2cnc3c(N)ncnc32)[C@H](O)[C@@H]1OP(=O)(O)O)[C@@H](O)C(=O)NCCC(=O)NCCSC(=O)CCO; pH 6.5, 65 °C, substrate made in situ, together with: ATP, CoA, NADPH).

Excerpt of the above:
`B7 (TylM1 H123N)` has a kcat/Km of 14 ± 1 M⁻¹ s⁻¹ (Cc1cn([C@H]2C[C@H](O)[C@@H](COP(=O)(O)OP(=O)(O)O[C@H]3O[C@H](C)[C@@H](O)[C@H](N)[C@H]3O)O2)c(=O)[nH]c1=O; 25 °C, together with: SAM).
